Experimental data of several laboratories.
± marks the error that the study gave.
Method: steady-state kinetics
B1: enzyme E323G (UniProt H9KVH3); chain ADASQIVSEMGAGWNLGNQLEAAVNGTPNETAWGNPTVTPELIKKVKAAGFKSIRIPVSYLNNIGSAPNYTINAAWLNRIQQVVDYAYNEGLYVIINIHGDGYNSVQGGWLLVNGGNQTAIKEKYKKVWQQIATKFSNYNDRLIFESMNEVFDGNYGNPNSAYYTNLNAYNQIFVDTVRQTGGNNNARWLLVPGWNTNIDYTVGNYGFTLPTDNYRSSAIPSSQKRIMISAHYYSPWDFAGEENGNITQWGATSTNPAKKSTWGQEDYLESQFKSMYDKFVTQGYPVVIGGFGSIDKTSYDSSNNVYRAAYAKAVTAKAKKYKMVPVYWDNGHNGQHGFALFNRSNNTVTQQNIINAIMQGMQ
B2: CODH (Afipia carboxidovorans, UniProt P19920); chain MIPGSFDYHRPKSIADAVALLTKLGEDARPLAGGHSLIPIMKTRLATPEHLVDLRDIGDLVGIREEGTDVVIGAMTTQHALIGSDFLAAKLPIIRETSLLIADPQIRYMGTIGGNAANGDPGNDMPALMQCLGAAYELTGPEGARIVAARDYYQGAYFTAIEPGELLTAIRIPVPPTGHGYAYEKLKRKIGDYATAAAAVVLTMSGGKCVTASIGLTNVANTPLWAEEAGKVLVGTALDKPALDKAVALAEAITAPASDGRGPAEYRTKMAGVMLRRAVERAKARAKN
B3: vioC (Streptomyces vinaceus, UniProt Q6WZB0); chain MTESPTTHHGAAPPDSVATPVRPWSEFRLTPAEAAAAAALAARCAQRYDETDGPEFLLDAPVIAHELPRRLRTFMARARLDAWPHALVVRGNPVDDAALGSTPVHWRTARTPGSRPLSFLLMLYAGLLGDVFGWATQQDGRVVTDVLPIKGGEHTLVSSSSRQELGWHTEDAFSPYRADYVGLLSLRNPDGVATTLAGVPLDDLDERTLDVLFQERFLIRPDDSHLQVNNSTAQQGRVEFEGIAQAADRPEPVAILTGHRAAPHLRVDGDFSAPAEGDEEAAAALGTLRKLIDASLYELVLDQGDVAFIDNRRAVHGRRAFQPRYDGRDRWLKRINITRDLHRSRKAWAGDSRVLGQR
B4: BaiA1 (Clostridium scindens, UniProt P07914); chain MKLVQDKITIITGGTRGIGFAAAKLFIENGAKVSIFGETQEEVDTALAQLKELYPEEEVLGFAPDLTSRDAVMAAVGTVAQKYGRLDVMINNAGITMNSVFSRVSEEDFKNIMDINVNGVFNGAWSAYQCMKDAKQGVIINTASVTGIYGSLSGIGYPTSKAGVIGLTHGLGREIIRKNIRVVGVAPGVVDTDMTKGLPPEILEDYLKTLPMKRMLKPEEIANVYLFLASDLASGITATTISVDGAYRP
B5: SUOX P168A (Homo sapiens, UniProt P51687); chain ESTHIYTKEEVSSHTSPETGIWVTLGSEVFDVTEFVDLHPGGPSKLMLAAGGPLEPFWALYAVHNQSHVRELLAQYKIGELNPEDKVAATVETSDPYADDPVRHPALKVNSQRPFNAEPPPELLTENYITPNPIFFTRNHLPVPNLDPDTYRLHVVGAPGGQSLSLSLDDLHNFPRYEITVTLQCAGNRRSEMTQVKEVKGLEWRTGAISTARWAGARLCDVLAQAGHQLCETEAHVCFEGLDSDPTGTAYGASIPLARAMDPEAEVLLAYEMNGQPLPRDHGFPVRVVVPGVVGARHVKWLGRVSVQPEESYSHWQRRDYKGFSPSVDWETVDFDSAPSIQELPVQSAITEPRDGETVESGEVTIKGYAWSGGGRAVIRVDVSLDGGLTWQVAKLDGEEQRPRKAWAWRLWQLKAPVPAGQKELNIVCKAVDDGYNVQPDTVAPIWNLRGVLSNAWHRVHVYVSP
B6: enzyme (Salmonella enterica, UniProt P31570); chain MSDERYQQRQQKVKDRVDARVAQAQEERGIIIVFTGNGKGKTTAAFGTAARAVGHGKNVGVVQFIKGTWPNGERNLLEPHGVEFQVMATGFTWETQNREADTAACMAVWQHGKRMLADPLLDMVVLDELTYMVAYDYLPLEEVISALNARPGHQTVIITGRGCHRDILDLADTVSELRPVKHAFDAGVKAQMGIDY
B7: POLK W214Y/W392H/Y50W (Homo sapiens, UniProt Q9UBT6); chain MGLNDNKAGMEGLDKEKINKIIMEATKGSRFWGNELKKEKQVNQRIENMMQQKAQITSQQLRKAQLQVDRFAMELEQSRNLSNTIVHIDMDAFYAAVEMRDNPELKDKPIAVGSMSMLSTSNYHARRFGVRAAMPGFIAKRLCPQLIIVPPNFDKYRAVSKEVKEILADYDPNFMAMSLDEAYLNITKHLEERQNYPEDKRRYFIKMGSSVENDNPGKEVNKLSEHERSISPLLFEESPSDVQPPGDPFQVNFEEQNNPQILQNSVVFGTSAQEVVKEIRFRIEQKTTLTASAGIAPNTMLAKVCSDKNKPNGQYQILPNRQAVMDFIKDLPIRKVSGIGKVTEKMLKALGIITCTELYQQRALLSLLFSETSHHYFLHISLGLGSTHLTRDGERKSMSVERTFSEINKAEEQYSLCQELCSELAQDLQKERLKGRTVTIKLKNVNFEVKTRASTVSSVVSTAEEIFAIAKELLKTEIDADFPHPLRLRLMGVRISSFPNEEDRKHQQ
B8: putA D779W (Bradyrhizobium diazoefficiens, UniProt Q89E26); chain MPNIPPPFTAPYAPDDAEIAARLLPASHLSPPQEARIHRTATRLIEAIRKRDDRLGGVEDMLREFALSTKEGLALMVLAEALLRVPDARTADQFIEDKLGEGDFIHHETKSTAFLVNASAWALGLSARVIQPGETPDGTIGRLVKRLGAPAVRTATRQAMRLMGNHFVLGETIEQALERGKPRSGQKTRYSFDMLGEGARTAADARRYFDAYASAIETIGKAAGNHALPDRPGISVKLSALHPRFEAISRARVMVELVPQLLDLAQRAKAHDLNFTVDAEEADRLELSLDVIAATLADPSLKGWDGFGLAIQAYQKRASAVIDYVDALARAHDRKLMVRLVKGAYWDTEIKRAQERGLDGYPVFTRKAMTDLNYVACASKLLALRPRIFPQFATHNALTVATVLEMAEGSSGFEFQRLHGMGEALYEQLAKDHADIAYRTYAPVGSHRDLLAYLVRRLLENGANSSFVAQAADYRVPVPALLQRPADAIVRPQAAAHPRIPLPCDLFAPERRNSRGVEFGARTALDQLLTDVKAETGDLKPIADATPDQAHAAVAAARAGFAGWSRTPAGIRAAALEQAAHLLESRSAHFIALLQREGGKTLDDALSELREAADFCRYYAAQGRKLFGSETAMPGPTGESNALTMRGRGVFVAISPWNFPLAIFLGQVTAALMAGNSVVAKPAEQTPRIAREAVALLHEAGIPKSALYLVTGDGRIGAALTAHPDIAGVVFTGSTEVARSINRALAAKDGPIVPLIAETGGINAMIADATALPEQVADWVVTSAFRSAGQRCSALRLLFVQEDVADRMIEMVAGAARELKIGDPSDVATHVGPVIDVEAKQRLDAHIARMKTEARLHFAGPAPEGCFVAPHIFELTEAGQLTEEVFGPILHVVRYRPENLERVLRAIERTGYGLTLGVHSRIDDSIEAIIDRVQVGNIYVNRNMIGAVVGVQPFGGNGLSGTGPKAGGPHYLARFATEQTVTINTAAAGGNAALLAGEE
B9: protein Y93C (Thermus thermophilus, UniProt Q5SKR5); chain MSAPKPFVIGIAGGTASGKTTLAQALARTLGERVALLPMDHYYKDLGHLPLEERLRVNYDHPDAFDLALYLEHAQALLRGLPVEMPVYDFRACTRSPRRTPVRPAPVVILEGILVLYPKELRDLMDLKVFVDADADERFIRRLKRDVLERGRSLEGVVAQYLEQVKPMHLHFVEPTKRYADVIVPRGGQNPVALEMLAAKALARLARMGAA
B10: enzyme (Mortierella alpina, UniProt U5Y6A8); chain MAPPHVVDEQVRRRIVVEDEIQSKKQFERNYVPMDFTIKEIRDAIPAHLFIRDTTKSILHVVKDLVTIAIVFYCATFIETLPSLALRVPAWITYWIIQGTVMVGPWILAHECGHGAFSDSKTINTIFGWVLHSALLVPYQAWAMSHSKHHKGTGSMSKDVVFIPATRSYKGLPPLEKPAAEEEVLEQEHHHHEESIFAETPIYTLGALFFVLTLGWPLYLIMNFSGHEAPHWVNHFQTVAPLYEPHQRKNIFYSNCGIVAMGSILTYLSMVFSPLTVFMYYGIPYLGVNAWIVCITYLQHTDPKVPHFRDNEWNFQRGAACTIDRSFGTIVNHLHHHIGDSHQCHHMFSQMPFYNAVEATKHLKAKLGKYYIFDDTPIAKALYRNWRECKFVEDEGDVVFYKH
B11: enzyme K299V (Mus musculus, UniProt P08680); chain DRKSKIVQRAAPEVQEDVKTFKTDLLSTMDSTTRSHSFPSFQEPEQTEGAVPHLIQNNMTGSQAFGYDQFFRDKIMEKKQDHTYRVFKTVNRWANAYPFAQHFSEASMASKDVSVWCSNDYLGISRHPRVLQAIEETLKNHGAGAGGTRNISGTSKFHVELEQELAELHQKDSALLFSSCFVANDSTLFTLAKLLPGCEIYSDAGNHASMIQGIRNSGAAVFVFRHNDPGHLKKLLEKSDPKTPKIVAFETVHSMDGAICPLEELCDVAHQYGALTFVDEVHAVGLYGARGAGIGERDGIMHKLDIISGTLGKAFGCVGGYIASTRDLVDMVRSYAAGFIFTTSLPPMVLSGALESVRLLKGEEGQALRRAHQRNVKHMRQLLMDRGFPVIPCPSHIIPIRVGNAALNSKICDLLLSKHSIYVQAINYPTVPRGEELLRLAPSPHHSPQMMENFVEKLLLAWTEVGLPLQDVSVAACNFCHRPVHFELMSEWERSYFGNMGPQYVTTYA

B1 (enzyme E323G)
kcat/Km (OC[C@H]1O[C@H](F)[C@H](O)[C@@H](O)[C@@H]1O[C@@H]1O[C@H](CO[C@H]2OC[C@@H](O)[C@H](O)[C@H]2O)[C@@H](O[C@@H]2O[C@H](CO[C@H]3OC[C@@H](O)[C@H](O)[C@H]3O)[C@@H](O[C@@H]3O[C@H](CO[C@H]4OC[C@@H](O)[C@H](O)[C@H]4O)[C@@H](O)[C@H](O)[C@H]3O)[C@H](O)[C@H]2O)[C@H](O)[C@H]1O; pH 7.5, 30 °C, apparent): 128 M⁻¹ s⁻¹

B2 (CODH)
kcat/Km (O=C1C=CC(=O)C=C1; pH 7.2, 25 °C, anaerobic, together with: CO saturating): 6.37e+06 M⁻¹ s⁻¹

B3 (vioC)
kcat/Km (N=C(N)NOCC[C@H](N)C(=O)O; pH 8, 30 °C, together with: alpha-ketoglutarate 1.0 mM): 1060 ± 283 M⁻¹ s⁻¹

B4 (BaiA1)
kcat/Km (C[C@H](CCC(=O)SCCNC(=O)CCNC(=O)[C@H](O)C(C)(C)COP(=O)(O)OP(=O)(O)OC[C@H]1O[C@@H](n2cnc3c(N)ncnc32)[C@H](O)[C@@H]1OP(=O)(O)O)[C@H]1CC[C@H]2[C@@H]3[C@H](O)C[C@@H]4CC(=O)CC[C@]4(C)[C@H]3C[C@H](O)[C@]12C; pH 8.7, 37 °C, together with: NADH): 60400 M⁻¹ s⁻¹

B5 (SUOX P168A)
kcat/Km (O=S(O)O; pH 8, 25 °C, together with: oxidized cyt c 400 µM): 1.5e+06 M⁻¹ s⁻¹

B6 (enzyme)
kcat/Km (Nc1ncnc2c1ncn2[C@@H]1O[C@H](COP(=O)(O)OP(=O)(O)OP(=O)(O)O)[C@@H](O)[C@H]1O; pH 8, 37 °C): 10000 ± 2000 M⁻¹ s⁻¹

B7 (POLK W214Y/W392H/Y50W)
kcat/Km (Nc1ccn([C@H]2C[C@H](O)[C@@H](COP(=O)(O)OP(=O)(O)OP(=O)(O)O)O2)c(=O)n1; pH 7.5, 23 °C, MgCl2 5 mM, together with: G template): 37000 M⁻¹ s⁻¹

B8 (putA D779W)
kcat/Km (O=C(O)[C@@H]1CCC=N1; pH 7.5, 23 °C): 8.6 ± 4 M⁻¹ s⁻¹

B9 (protein Y93C)
kcat/Km (Nc1ccn([C@@H]2O[C@H](CO)[C@@H](O)[C@H]2O)c(=O)n1; pH 7.2, 25 °C, KCl 100 mM, together with: ATP 100–200 µM): 9000 M⁻¹ s⁻¹

B10 (enzyme)
kcat/Km (CCCCC/C=C\C/C=C\CCCCCCCC(=O)SCCNC(=O)CCNC(=O)[C@H](O)C(C)(C)COP(=O)(O)OP(=O)(O)OC[C@H]1O[C@@H](n2cnc3c(N)ncnc32)[C@H](O)[C@@H]1OP(=O)(O)O; pH 7.5, 28 °C): 11700 M⁻¹ s⁻¹

AphC (Rhodococcus jostii, UniProt Q0S9X1)
kcat/Km (Cc1ccc(O)c(O)c1; pH 8, 25 °C, apparent, together with: O2): 103000 M⁻¹ s⁻¹

B11 (enzyme K299V)
kcat/Km (CC(C)(COP(=O)(O)OP(=O)(O)OC[C@H]1O[C@@H](n2cnc3c(N)ncnc32)[C@H](O)[C@@H]1OP(=O)(O)O)[C@@H](O)C(=O)NCCC(=O)NCCSC(=O)CCC(=O)O; pH 7.5, 37 °C): 7000 ± 700 M⁻¹ s⁻¹

Repeated from above:
B9 (protein Y93C)
kcat/Km (Nc1ccn([C@@H]2O[C@H](CO)[C@@H](O)[C@H]2O)c(=O)n1; pH 7.2, 25 °C, KCl 100 mM, together with: ATP 100–200 µM): 9000 M⁻¹ s⁻¹

B10 (enzyme)
kcat/Km (CCCCC/C=C\C/C=C\CCCCCCCC(=O)SCCNC(=O)CCNC(=O)[C@H](O)C(C)(C)COP(=O)(O)OP(=O)(O)OC[C@H]1O[C@@H](n2cnc3c(N)ncnc32)[C@H](O)[C@@H]1OP(=O)(O)O; pH 7.5, 28 °C): 11700 M⁻¹ s⁻¹
